Measurements from different studies.
“And” joins repeats or separate records; there may be more than shown. ± gives the spread as reported. Converted amounts (≈) assume the structure as drawn.

O=C1OC[C@H]2OC(O)[C@H](O)[C@@H](O)[C@@H]2OC(=O)c2cc(O)c(O)c(O)c2-c2c(O)c(O)c3oc(=O)c4c(c(O)c(O)c5oc(=O)c2c3c54)-c2c1cc(O)c(O)c2O (mixture of isomers)
inhibition zone diameter (Streptococcus sobrinus; 500 µg/disc): 15.4 ± 1.4 mm

N=C(N)c1cccc(OCc2ccc(COc3cccc(C(=N)N)c3)cc2)c1
MIC of compound in combination (Escherichia coli; checkerboard; BW25113; concentration not given, lowest-FICI combination, together with: erythromycin): 50 µg/mL

CO[C@H]1/C=C/O[C@@]2(C)Oc3c(C)c(O)c4c(c3C2=O)C2=NC3(CCN(CC(C)C)CC3)NC2=C(NC(=O)/C(C)=C\C=C\[C@H](C)[C@H](O)[C@@H](C)[C@@H](O)[C@@H](C)[C@H](OC(C)=O)[C@@H]1C)C4=O
IC50 (Mycobacteroides abscessus; bacterial growth; subsp. abscessus K21 clinical isolate): 1620 nM

CC(C)n1ncc2c(C(=O)NCC3(C)CNC3)cc(C3CC3)nc21
plaque area (Enterovirus D68; viral replication; RD, US/MO/14-18947; 0.3 µM; reference: untreated): 0%

CN[C@H](CC(C)C)C(=O)N[C@H]1C(=O)N[C@@H](CC(N)=O)C(=O)N[C@H]2C(=O)N[C@H]3C(=O)N[C@H](C(=O)N[C@H](C(=O)O)c4cc(O)cc(O)c4-c4cc3ccc4O)[C@H](O)c3ccc(c(Cl)c3)Oc3cc2cc(c3O[C@@H]2O[C@H](CO)[C@@H](O)[C@H](O)[C@H]2O[C@H]2C[C@](C)(N)[C@H](O)[C@H](C)O2)Oc2ccc(cc2Cl)[C@H]1O
MIC90 (Streptococcus pyogenes; erythromycin-sensitive, 21 strains): 0.5 µg/mL (≈ 0.345 µM)

CO[C@H]1/C=C/O[C@@]2(C)Oc3c(C)c(O)c4c(O)c(c(/C=N/N5CCN(C)CC5)c(O)c4c3C2=O)NC(=O)/C(C)=C\C=C\[C@H](C)[C@H](O)[C@@H](C)[C@@H](O)[C@@H](C)[C@H](OC(C)=O)[C@@H]1C
DNA perimeter (Bacillus subtilis; bacterial cytological profiling; ATCC 6633): 4.91 µm and 4.8 µm and 4.52 µm

O=c1c(-c2nc3ccccc3s2)cc2c(n1NS(=O)(=O)c1ccc(Cl)cc1)CCCC2
reduction (Human mastadenovirus B; viral replication, plaque reduction; HEp-2 cells, type 7; non-toxic concentration): 0%

Cc1c2c(nn1C)CSCc1cc(n(C)n1)CSc1cc(c3ccccc3c1)OCCCc1c(C(=O)O)n(C)c3c-2c(Cl)ccc13
MIC50 (Staphylococcus aureus; broth microdilution; MRSA isolates): 12.5 µM

COc1cc(C#CC(=O)c2ccccc2)ccc1O
biofilm inhibition (Pseudomonas aeruginosa; PAO1; 10 µM, static conditions): 50%

CC(C)C(=O)OC[C@H]1O[C@@H](n2ccc(NO)nc2=O)[C@H](O)[C@@H]1O
EC50 (human respiratory syncytial virus; viral replication, viral protein ELISA; HEp-2, A2; 5 days): > 10000 nM

CC1(C)S[C@@H]2[C@H](NC(=O)[C@H](N)c3ccccc3)C(=O)N2[C@H]1C(=O)O
DNA width (Bacillus subtilis; bacterial cytological profiling; ATCC 6633): 0.72 µm and 0.71 µm and 0.59 µm

[N-]=[N+]=N[C@]1(CO)O[C@@H](n2ccc(N)nc2=O)[C@@H](F)[C@@H]1O
EC50 (human respiratory syncytial virus; viral replication; A549, A2 GFP reporter): > 50000 nM

N=C(N)c1ccc(OCCCCCOc2ccc(C(=N)N)cc2)cc1
MIC in combination (Escherichia coli; ATCC 25922; concentration not given, together with: rifampicin): 50 µg/mL

Cn1c(Cn2ccc(C(F)(F)F)c(Oc3cc(Cl)cc(C#N)c3)c2=O)n[nH]c1=O
EC50 (HIV-1 NL4-3; viral replication, luciferase reporter; TZM-bl; 48 h): 3 ± 0.2 nM

O=c1oc2c(O)c(O)cc3c(=O)oc4c(O)c(O)cc1c4c23
inhibition zone diameter (Streptococcus sobrinus; 500 µg/disc): 17.2 ± 1.3 mm

O=C(O)c1cn(C2CC2)c2cc(N3CCNCC3)c(F)cc2c1=O
DNA width (Bacillus subtilis; bacterial cytological profiling; ATCC 6633): 0.59 µm and 0.61 µm and 0.65 µm

CC1(C)S[C@@H]2[C@H](NC(=O)[C@H](N)c3ccccc3)C(=O)N2[C@H]1C(=O)O
MIC (Pseudomonas aeruginosa; clinical isolate RKI-No_598/16): > 16 µg/mL

CCn1c(=O)c(-c2cc[nH]n2)cc2c(C)nc(N)nc21
viral load (enterovirus A71; RT-qPCR, item: EV71 RNA; ICR mouse, EV71-infected, brain, heart, liver, spleen, hindlimb; 0.25 mg/kg, day 2 post-infection): decreased

C=CC(=O)ON=C1C=CC(=C(C#N)c2ccccc2)C=C1
MFC (Pichia norvegensis; broth dilution; ATCC 96139; 48 h, 37 °C): 32 µg/mL (≈ 116 µM)

CC[C@@H](C)[C@@H](N)C(=O)OC[C@H]1O[C@@](C#N)(c2ccc3c(N)ncnn23)[C@H](O)[C@@H]1O
EC50 (human respiratory syncytial virus; viral replication, viral protein ELISA; HEp-2, A2; 5 days): 1690 ± 216 nM

CN(C)[C@@H]1C(O)=C(C(N)=O)C(=O)[C@@]2(O)C(O)=C3C(=O)c4c(O)cccc4[C@@](C)(O)[C@H]3C[C@@H]12
DNA perimeter (Bacillus subtilis; bacterial cytological profiling; ATCC 6633): 4.88 µm and 4.65 µm and 4.69 µm

COC(=O)[C@H](Cc1c[nH]c2ccccc12)NCc1cc2ccccc2nc1SC
growth (Pseudomonas aeruginosa; 32 µg/mL, together with: pentamidine 50 µM; reference: control): 80.4%

CC(=O)NC[C@H]1CN(c2ccc(N3CCOCC3)c(F)c2)C(=O)O1
MIC50 (Staphylococcus epidermidis; methicillin-resistant, 10 isolates; serum 25%): 1 µg/mL

CCc1nc2[nH]c(=O)n(O)c(=O)c2s1
growth inhibition (Amaranthus retroflexus; 750 g/ha, 21 days, post-emergence, glasshouse pot): 0%

CCc1nn(C)c2nc(-c3ccc(C(=O)O)cc3)nc(NCc3ccc(F)cc3)c12
parasite number (Cryptosporidium parvum; HCT-8; EC90, 48 h; reference: DMSO control): 28.2% and 31.6% and 32.2% and 32.5%

O=C1O[C@H]2[C@@H]3OC(=O)c4cc(O)c(O)c(O)c4-c4c(O)c(O)c5oc(=O)c6c(c(O)c(O)c7oc(=O)c4c5c76)-c4c(cc(O)c(O)c4O)C(=O)OC[C@H]3OC(O)[C@@H]2OC(=O)c2cc(O)c(O)c(O)c2-c2c1cc(O)c(O)c2O (mixture of isomers)
MBC/MIC ratio (Streptococcus sobrinus; broth microdilution): 2

O=c1cc(-c2ccc(O)c(-c3c(O)cc(O)c4c(=O)cc(-c5ccc(O)cc5)oc34)c2)oc2cc(O)cc(O)c12
EC50 (hepatitis C virus; viral replication; Huh-Luc/neo-ET replicon cells): > 50000 nM

COc1cccc2c1C(=O)c1c(O)c3c(c(O)c1C2=O)C[C@@](O)(C(=O)CO)C[C@@H]3O[C@H]1C[C@H](N)[C@H](O)[C@H](C)O1
DNA length (Bacillus subtilis; bacterial cytological profiling; ATCC 6633): 2.4 µm and 2.41 µm and 2.67 µm

O=c1[nH]c2ncsc2c(=O)n1O
growth inhibition (Amaranthus retroflexus; 750 g/ha, 21 days, pre-emergence, glasshouse pot): 30%

O=C(O[C@@H]1O[C@@H]2COC(=O)c3cc(O)c(O)c(O)c3-c3c(cc(O)c(O)c3O)C(=O)O[C@H]([C@H]1O)[C@@H]2O)c1cc(O)c(O)c(O)c1
initial rate of glycolytic pH drop (Streptococcus sobrinus; MIC, first 15 min, together with: glucose 1%): 0.033 pH units/min
